Published values collected from several papers.
Each line is one published result; not all experiments were run side by side.
Cell line: LS174T

SMILES | assay | conditions | scale | quantity | value
CCn1cc(-c2cc(Cn3ccoc3=N)cc3c2CCN([C@@H](C)c2cc(OC)ccn2)C3=O)c(C(F)(F)F)n1 | cell growth, inhibitor | 120 h |  | EC50 | 67.8 nM
[Cl-].c1csc([I+]c2cccs2)c1 | Western blot, refers to: p27 | concentration not given, 24 h |  | protein level | increased
CCCN1CCN(c2ccc(-c3cncc(Cl)c3N3CCC4(CCNC4=O)CC3)cc2)CC1 | WNT reporter gene, inhibitor, TCF/LEF luciferase |  |  | IC50 | 20 nM
c1ccc([I+]c2ccccc2)cc1 | cell growth, trypan blue count | 48 h |  | IC50 | ~10000 nM
COc1cnc2cccc(N3CCc4c(cc(Cn5ccnc5C)cc4-c4cn(C)nc4C(F)(F)F)C3=O)c2c1 | cell growth, inhibitor | 120 h |  | EC50 | 339 nM
COc1cccc2c1C(=O)c1c(O)c3c(c(O)c1C2=O)C[C@@](O)(C(=O)CO)C[C@@H]3O[C@H]1C[C@H](N)[C@H](O)[C@H](C)O1 | cytotoxicity, WST-1 | 72 h, highest tested concentration |  | Emax | 88.5%
Cc1c(C(=O)O)ccc2c3n(nc12)[C@@H]1[C@H](C3)N(CC2CC2)[C@@]2(C(=O)Nc3cc(Cl)ccc32)[C@H]1c1cccc(Cl)c1F | cell growth, alamarBlue | unbound |  | GI50 | 0.32 nM
CCCN1CCN(c2cccc(-c3cnccc3N3CCCC4(CCNC4=O)C3)c2)CC1 (stereo not drawn) | WNT reporter gene, inhibitor, TCF/LEF luciferase |  |  | IC50 | > 5000 nM
CSCC[C@@H]1NC(=O)[C@@H](NC(=O)[C@H](CO)NC(=O)[C@@H](NC(=O)CNC(=O)CNC(=O)CCCCCN)C(C)C)CSSC[C@@H](C(=O)N[C@@H](CCC(=O)O)C(=O)N[C@@H](CC(N)=O)C(=O)N[C@@H](CC(N)=O)C(=O)N[C@@H](CC(C)C)C(=O)O)NC(=O)[C@H](C(C)C)NC(=O)[C@@H]2CCCN2C(=O)[C@H](CO)NC(=O)[C@H]([C@@H](C)O)NC(=O)[C@H](CCC(N)=O)NC1=O | labelled peptide binding | concentration not given, 1 h | reference: unlabelled native peptide | inhibition | 49%

For quick reference, copied from above:
SMILES | assay | conditions | scale | quantity | value
COc1cccc2c1C(=O)c1c(O)c3c(c(O)c1C2=O)C[C@@](O)(C(=O)CO)C[C@@H]3O[C@H]1C[C@H](N)[C@H](O)[C@H](C)O1 | cytotoxicity, WST-1 | 72 h, highest tested concentration |  | Emax | 88.5%
